Results gathered from unrelated publications.
Protocols differ between the studies behind these lines.
UniProt P18089, sequence (whole entry, looked up): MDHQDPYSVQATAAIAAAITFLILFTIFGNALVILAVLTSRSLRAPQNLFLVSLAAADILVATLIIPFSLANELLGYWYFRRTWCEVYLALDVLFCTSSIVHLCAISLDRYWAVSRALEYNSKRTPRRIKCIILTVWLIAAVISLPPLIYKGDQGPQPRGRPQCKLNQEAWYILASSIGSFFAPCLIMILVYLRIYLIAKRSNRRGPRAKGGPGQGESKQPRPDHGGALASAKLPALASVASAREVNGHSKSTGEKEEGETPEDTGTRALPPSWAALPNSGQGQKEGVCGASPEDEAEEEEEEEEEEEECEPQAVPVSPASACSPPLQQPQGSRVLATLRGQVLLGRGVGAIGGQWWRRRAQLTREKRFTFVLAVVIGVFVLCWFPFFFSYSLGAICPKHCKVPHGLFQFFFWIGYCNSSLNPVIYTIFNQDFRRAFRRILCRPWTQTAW
UniProt P25103, sequence (whole entry, looked up): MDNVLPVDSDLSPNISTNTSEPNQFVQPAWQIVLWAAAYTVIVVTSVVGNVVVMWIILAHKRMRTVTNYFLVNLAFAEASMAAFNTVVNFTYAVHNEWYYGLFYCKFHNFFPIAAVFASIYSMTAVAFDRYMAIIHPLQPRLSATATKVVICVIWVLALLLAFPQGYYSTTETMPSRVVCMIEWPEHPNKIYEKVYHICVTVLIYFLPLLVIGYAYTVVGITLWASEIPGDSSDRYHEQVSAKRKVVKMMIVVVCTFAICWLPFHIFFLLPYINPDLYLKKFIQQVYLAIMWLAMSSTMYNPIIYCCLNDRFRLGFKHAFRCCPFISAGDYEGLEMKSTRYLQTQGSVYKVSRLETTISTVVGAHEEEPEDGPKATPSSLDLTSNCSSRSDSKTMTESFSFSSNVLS
UniProt Q13177, sequence (whole entry, looked up): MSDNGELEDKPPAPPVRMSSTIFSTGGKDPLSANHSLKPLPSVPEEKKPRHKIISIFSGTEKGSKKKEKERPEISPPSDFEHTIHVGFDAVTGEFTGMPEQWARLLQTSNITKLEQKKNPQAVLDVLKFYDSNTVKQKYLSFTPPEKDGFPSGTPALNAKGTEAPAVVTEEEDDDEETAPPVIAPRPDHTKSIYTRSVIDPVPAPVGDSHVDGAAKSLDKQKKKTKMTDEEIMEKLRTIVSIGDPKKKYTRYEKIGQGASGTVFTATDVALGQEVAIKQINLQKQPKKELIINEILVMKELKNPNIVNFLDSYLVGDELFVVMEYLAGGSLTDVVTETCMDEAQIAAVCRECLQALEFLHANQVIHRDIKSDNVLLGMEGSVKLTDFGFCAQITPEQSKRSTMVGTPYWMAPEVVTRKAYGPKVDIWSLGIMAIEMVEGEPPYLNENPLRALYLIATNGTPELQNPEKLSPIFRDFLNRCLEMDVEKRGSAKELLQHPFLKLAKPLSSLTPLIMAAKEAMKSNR
UniProt Q9HCP0, sequence (whole entry, looked up): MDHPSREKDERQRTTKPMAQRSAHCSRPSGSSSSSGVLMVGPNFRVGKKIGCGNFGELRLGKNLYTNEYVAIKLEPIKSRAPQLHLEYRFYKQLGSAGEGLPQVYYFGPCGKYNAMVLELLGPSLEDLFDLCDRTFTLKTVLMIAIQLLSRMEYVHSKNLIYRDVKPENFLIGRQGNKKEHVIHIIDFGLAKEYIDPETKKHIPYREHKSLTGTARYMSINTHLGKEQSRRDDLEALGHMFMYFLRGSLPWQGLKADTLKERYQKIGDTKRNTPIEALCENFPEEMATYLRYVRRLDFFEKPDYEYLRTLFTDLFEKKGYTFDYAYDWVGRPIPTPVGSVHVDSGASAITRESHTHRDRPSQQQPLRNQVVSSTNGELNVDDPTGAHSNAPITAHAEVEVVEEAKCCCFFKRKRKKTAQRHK
UniProt Q9BVS4, sequence (whole entry, looked up): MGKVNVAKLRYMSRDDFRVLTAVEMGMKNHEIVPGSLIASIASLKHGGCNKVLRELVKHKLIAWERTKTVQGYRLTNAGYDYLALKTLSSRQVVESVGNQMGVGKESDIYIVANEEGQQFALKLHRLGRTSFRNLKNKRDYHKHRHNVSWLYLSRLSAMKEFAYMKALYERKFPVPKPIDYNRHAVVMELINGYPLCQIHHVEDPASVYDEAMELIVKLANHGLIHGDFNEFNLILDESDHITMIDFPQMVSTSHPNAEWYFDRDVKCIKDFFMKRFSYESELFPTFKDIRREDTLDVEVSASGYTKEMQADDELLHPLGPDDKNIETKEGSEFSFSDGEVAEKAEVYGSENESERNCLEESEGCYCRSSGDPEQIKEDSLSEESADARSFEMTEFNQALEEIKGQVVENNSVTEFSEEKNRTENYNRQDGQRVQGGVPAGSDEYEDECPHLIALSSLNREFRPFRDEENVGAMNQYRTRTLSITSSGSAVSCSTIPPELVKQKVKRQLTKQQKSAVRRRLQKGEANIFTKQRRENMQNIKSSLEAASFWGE
UniProt Q16513, sequence (whole entry, looked up): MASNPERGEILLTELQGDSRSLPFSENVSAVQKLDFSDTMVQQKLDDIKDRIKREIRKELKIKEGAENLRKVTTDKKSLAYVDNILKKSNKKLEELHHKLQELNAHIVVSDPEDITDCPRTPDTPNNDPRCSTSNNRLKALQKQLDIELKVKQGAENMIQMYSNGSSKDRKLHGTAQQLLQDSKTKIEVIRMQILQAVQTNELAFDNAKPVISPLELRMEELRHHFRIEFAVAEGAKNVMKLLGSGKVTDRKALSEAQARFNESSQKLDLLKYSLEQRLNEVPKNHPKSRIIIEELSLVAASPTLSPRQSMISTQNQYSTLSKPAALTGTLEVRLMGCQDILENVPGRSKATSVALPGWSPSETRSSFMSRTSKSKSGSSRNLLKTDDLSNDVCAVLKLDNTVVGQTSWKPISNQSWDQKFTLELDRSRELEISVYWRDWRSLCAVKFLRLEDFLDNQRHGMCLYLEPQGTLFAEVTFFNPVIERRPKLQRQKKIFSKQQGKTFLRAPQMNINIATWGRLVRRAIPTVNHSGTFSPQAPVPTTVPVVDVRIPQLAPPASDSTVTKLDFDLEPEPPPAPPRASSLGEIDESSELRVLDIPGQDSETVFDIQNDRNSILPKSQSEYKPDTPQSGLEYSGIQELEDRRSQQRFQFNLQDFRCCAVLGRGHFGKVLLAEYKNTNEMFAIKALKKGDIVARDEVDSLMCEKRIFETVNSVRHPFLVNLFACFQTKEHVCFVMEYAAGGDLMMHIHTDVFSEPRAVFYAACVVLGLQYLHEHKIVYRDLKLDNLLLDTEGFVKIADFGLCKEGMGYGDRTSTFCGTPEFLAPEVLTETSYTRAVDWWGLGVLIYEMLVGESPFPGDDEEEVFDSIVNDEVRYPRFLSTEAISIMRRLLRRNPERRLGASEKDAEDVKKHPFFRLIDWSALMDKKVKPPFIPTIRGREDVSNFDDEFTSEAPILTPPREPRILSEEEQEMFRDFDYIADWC
UniProt Q13153, sequence (whole entry, looked up): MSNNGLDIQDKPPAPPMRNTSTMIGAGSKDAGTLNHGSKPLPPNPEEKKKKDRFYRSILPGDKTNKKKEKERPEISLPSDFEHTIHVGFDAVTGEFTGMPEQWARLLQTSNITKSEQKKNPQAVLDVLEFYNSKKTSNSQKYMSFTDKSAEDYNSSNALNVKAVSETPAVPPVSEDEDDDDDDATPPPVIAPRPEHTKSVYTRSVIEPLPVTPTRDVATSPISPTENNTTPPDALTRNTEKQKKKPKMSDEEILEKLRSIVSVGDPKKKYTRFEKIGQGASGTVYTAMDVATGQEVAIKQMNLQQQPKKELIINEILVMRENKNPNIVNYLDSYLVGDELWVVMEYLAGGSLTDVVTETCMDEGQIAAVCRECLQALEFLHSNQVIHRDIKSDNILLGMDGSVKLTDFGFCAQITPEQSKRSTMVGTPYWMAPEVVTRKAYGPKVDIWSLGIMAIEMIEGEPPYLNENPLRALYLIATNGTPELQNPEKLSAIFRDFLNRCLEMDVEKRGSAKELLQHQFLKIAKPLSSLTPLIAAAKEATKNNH

| Compound | target | test | conditions | inhibition |
| --- | --- | --- | --- | --- |
| CN(C)[C@H]1C[C@@]23CC[C@@]4(O2)C(=CC[C@]2(C)[C@@H](c5ccc6ccncc6c5)CC[C@H]24)C=C3[C@@H](O)[C@@H]1O | Serine/threonine-protein kinase N2 (PKN2, Homo sapiens, UniProt Q16513) | ATP probe labelling, inhibitor, KiNativ profiling | 0.1 µM | -4% |
| COc1ccc(F)cc1S(=O)(=O)Nc1cnc2c(c1)C(=O)NCCO2 | Substance-P receptor (TACR1, Homo sapiens, UniProt P25103) | ligand displacement, radioligand | 10 µM | 4% |
| CS(C)(=O)=Nc1ccc(-c2ccc(-c3nc4cc(O[C@@H]5CO[C@H]6[C@@H]5OC[C@H]6O)[nH]c4cc3F)cc2)cc1 | myosin light chain kinase human | enzyme activity, inhibitor | 10 µM | 15% |
| C[C@H](NCc1ccc(-c2ccc(C(F)(F)F)cc2)cc1)C(N)=O | Serine/threonine-protein kinase RIO2 (RIOK2, Homo sapiens, UniProt Q9BVS4) | cell-free assay, competition with immobilised ligand | 1 µM | 3% |
| O=C(O)c1ccccc1/C=N/Nc1nc(-c2ccccc2Cl)cs1 | Serine/threonine-protein kinase PAK 1 (PAK1, Homo sapiens, UniProt Q13153) | enzyme activity, inhibitor | 1 µM | -3.42% |
| CC(C)[C@H]1NC(=O)C[C@H]2/C=C/CCSSC[C@@H](NC1=O)C(=O)N[C@H](Cc1cccc3ccccc13)C(=O)NCC(=O)O2 | Serine/threonine-protein kinase PAK 2 (PAK2, Homo sapiens, UniProt Q13177) | enzyme activity, inhibitor | 10 µM | -1.3% |
| O=C(CN1CN(c2ccccc2)C2(CCN(C(=O)c3cnc4[nH]ncc4c3)CC2)C1=O)NCC(F)(F)F | Epidermal growth factor receptor (EGFR, Homo sapiens, UniProt P00533, G719S) | inhibitor | concentration not given | < 50% |
| N[C@H](C(=O)N1CCCC1)C1CCN(c2nccc3c(-c4ncc(Cl)cc4Cl)cccc23)CC1 | Alpha-2B adrenergic receptor (ADRA2B, Homo sapiens, UniProt P18089) | functional response, antagonist | 10 µM | 7% |
| CN(/N=C/c1ccccc1C(=O)O)c1nc(-c2ccccc2Cl)cs1 | Casein kinase I isoform gamma-1 (CSNK1G1, Homo sapiens, UniProt Q9HCP0) | enzyme activity, inhibitor | 1 µM | -6.17% |
